Measurements of several laboratories.
Each line is one published result; not all experiments were run side by side. Numbers after ± are the reported error.
Target: ATP-dependent translocase ABCB1 (ABCB1, Homo sapiens, UniProt P08183)
Chain of UniProt P08183 (whole entry, looked up): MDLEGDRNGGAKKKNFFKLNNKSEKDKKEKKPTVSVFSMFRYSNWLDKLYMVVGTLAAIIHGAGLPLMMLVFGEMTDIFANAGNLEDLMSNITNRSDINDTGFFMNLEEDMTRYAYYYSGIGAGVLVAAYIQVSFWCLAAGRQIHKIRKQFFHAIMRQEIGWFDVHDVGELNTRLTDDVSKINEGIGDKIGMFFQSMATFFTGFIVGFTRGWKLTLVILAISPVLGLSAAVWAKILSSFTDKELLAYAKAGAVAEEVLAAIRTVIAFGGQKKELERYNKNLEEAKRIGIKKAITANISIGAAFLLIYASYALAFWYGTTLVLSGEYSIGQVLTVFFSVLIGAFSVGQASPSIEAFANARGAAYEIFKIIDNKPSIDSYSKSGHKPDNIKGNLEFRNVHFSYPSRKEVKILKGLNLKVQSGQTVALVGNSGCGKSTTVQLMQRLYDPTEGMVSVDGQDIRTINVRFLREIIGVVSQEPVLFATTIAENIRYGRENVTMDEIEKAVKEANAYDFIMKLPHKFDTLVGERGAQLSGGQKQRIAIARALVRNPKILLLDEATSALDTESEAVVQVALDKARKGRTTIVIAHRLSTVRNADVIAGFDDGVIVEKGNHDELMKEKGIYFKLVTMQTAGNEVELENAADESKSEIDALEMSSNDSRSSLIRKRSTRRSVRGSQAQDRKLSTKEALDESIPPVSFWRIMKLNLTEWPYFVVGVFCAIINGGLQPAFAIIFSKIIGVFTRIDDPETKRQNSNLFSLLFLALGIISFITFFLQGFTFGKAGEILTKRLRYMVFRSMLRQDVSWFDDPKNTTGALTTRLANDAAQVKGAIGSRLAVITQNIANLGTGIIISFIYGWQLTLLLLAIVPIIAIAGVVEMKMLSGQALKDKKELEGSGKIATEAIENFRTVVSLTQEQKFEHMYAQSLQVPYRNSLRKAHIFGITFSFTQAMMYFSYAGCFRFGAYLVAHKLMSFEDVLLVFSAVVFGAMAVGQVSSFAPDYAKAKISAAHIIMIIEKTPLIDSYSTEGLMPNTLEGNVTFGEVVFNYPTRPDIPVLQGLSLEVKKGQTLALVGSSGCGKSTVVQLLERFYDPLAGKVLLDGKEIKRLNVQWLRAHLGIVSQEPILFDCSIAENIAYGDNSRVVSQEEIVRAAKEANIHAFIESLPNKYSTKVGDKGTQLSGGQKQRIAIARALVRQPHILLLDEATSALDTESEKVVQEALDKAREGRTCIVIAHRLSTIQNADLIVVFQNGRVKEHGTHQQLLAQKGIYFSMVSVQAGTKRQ

Compound	test	system	conditions	how to read	quantity	result
CC(=O)OC1O[C@@H]2O[C@@]3(C)CC[C@H]4[C@H](C)CCC([C@H]1C)[C@@]24OO3 (stereo partly shown)	calcein-AM efflux, inhibitor, flow cytometry	CEM/ADR5000	30 min, added: calcein-AM 1 µM	relative to: untreated	maximal effect	916%
COc1cc(/C=C/C(=O)c2ccc3ccccc3c2)ccc1OCc1ccccc1	mitoxantrone efflux, flow cytometry	–	10 µM	–	inhibition	no inhibition
CC(C)CCN(c1nc(C#N)nc(NC2COC2)n1)C(C)c1ccc(F)cc1 (stereo not shown)	–	MDCK-MDR1	–	–	Papp	7.92 ×10⁻⁶ cm/s
CC(=O)OCCc1ccc(O)c(-c2cc(CCOC(C)=O)ccc2O)c1	rhodamine 123 efflux	–	10 µM	relative to: GF120918 0.5 µM	inhibition	0 ± 1.2%
C[C@H]1C(OC(=O)C(Cl)Cl)O[C@@H]2O[C@@]3(C)CC[C@H]4[C@H](C)CCC1[C@@]24OO3 (stereo partly shown)	calcein-AM efflux, inhibitor, flow cytometry	CEM/ADR5000	30 min, added: calcein-AM 1 µM	relative to: untreated	maximal effect	1380 ± 199%
N#Cc1nc(N2CCOCC2)nc(N(Cc2ccc(F)cc2)CC2CCCNC2)n1 (stereo not shown)	–	MDCKII-MDR1	1 µM, 4 h	–	Papp B-A	447 ×10⁻⁶ cm/s
C[C@H]1C(NCCS)O[C@@H]2O[C@@]3(C)CC[C@H]4[C@H](C)CCC1[C@@]24OO3 (stereo partly shown)	calcein-AM efflux, inhibitor, flow cytometry	CEM/ADR5000	30 min, added: calcein-AM 1 µM	relative to: untreated	maximal effect	1010 ± 106%
COc1cc(CCOC(C)=O)cc(-c2cc(CCOC(C)=O)cc(O)c2O)c1O	rhodamine 123 efflux	–	50 µM	relative to: GF120918 0.5 µM	inhibition	-0.4 ± 1.6%
CC(C)C(=O)Cc1c(OCC(O)C(C)(C)O)ccc2ccc(=O)oc12 (stereo not shown)	inhibitor, rhodamine 123 retention	COLO 320 and COLO 205	2 µM, added: rhodamine 123 5.2 µM	relative to: COLO 320 over COLO 205, higher = stronger inhibition	fluorescence activity ratio	1.84
Cn1ccc2cc(-n3c(=O)[nH]c4sc5c(c4c3=O)CCCC5)ccc21	–	MDCK-MDR1	5 µM	–	Papp A→B	18 ×10⁻⁶ cm/s
OC1(C(F)(F)F)CCN(c2nc(Nc3ccnc(C(F)(F)F)c3)nc(-c3cccc(C(F)(F)F)n3)n2)C1 (stereo not shown)	transport activity, inhibitor	membrane vesicles	concentration not given	–	inhibition	no inhibition
CCCC(=O)OC1O[C@@H]2O[C@@]3(C)CC[C@H]4[C@H](C)CCC([C@H]1C)[C@@]24OO3 (stereo partly shown)	calcein-AM efflux, inhibitor, flow cytometry	CEM/ADR5000	30 min, added: calcein-AM 1 µM	relative to: untreated	maximal effect	1390 ± 394%
CC(C)=CCc1c(OCC2OC2(C)C)ccc2ccc(=O)oc12 (stereo not shown)	inhibitor, rhodamine 123 retention	COLO 320 and COLO 205	2 µM, added: rhodamine 123 5.2 µM	relative to: COLO 320 over COLO 205, higher = stronger inhibition	fluorescence activity ratio	1.41
CC(=O)OCCc1cc(O)c(O)c(-c2cc(CCOC(C)=O)cc(O)c2O)c1	rhodamine 123 efflux	–	50 µM	relative to: GF120918 0.5 µM	inhibition	-0.3 ± 1.6%
C[C@H]1C(O)O[C@@H]2O[C@@]3(C)CC[C@H]4[C@H](C)CCC1[C@@]24OO3 (stereo partly shown)	calcein-AM efflux, inhibitor, flow cytometry	CEM/ADR5000	30 min, added: calcein-AM 1 µM	relative to: untreated	maximal effect	114 ± 10.2%
COc1cc(CCOC(C)=O)cc(-c2cc(CCOC(C)=O)cc(OC)c2O)c1O	rhodamine 123 efflux	–	50 µM	relative to: GF120918 0.5 µM	inhibition	-0.4 ± 1.3%
C[C@H]1C(OC(=O)C(C)(C)C)O[C@@H]2O[C@@]3(C)CC[C@H]4[C@H](C)CCC1[C@@]24OO3 (stereo partly shown)	calcein-AM efflux, inhibitor, flow cytometry	CEM/ADR5000	30 min, added: calcein-AM 1 µM	relative to: untreated	maximal effect	1780 ± 292%
OCCc1ccc(O)c(-c2cc(CCO)ccc2O)c1	rhodamine 123 efflux	–	10 µM	relative to: GF120918 0.5 µM	inhibition	-0.3 ± 2%
CC1(C)OC(=O)C[C@H](O)[C@]2(C)[C@H]3CC[C@@]4(C)[C@H](c5ccoc5)OC(=O)[C@H]5O[C@]54[C@]3(C)C(=O)C[C@@H]12	inhibitor, rhodamine 123 retention	COLO 320 and COLO 205	20 µM, added: rhodamine 123 5.2 µM	relative to: COLO 320 over COLO 205, higher = stronger inhibition	fluorescence activity ratio	0.78

Excerpt of the above:
Compound	test	system	conditions	how to read	quantity	result
OC1(C(F)(F)F)CCN(c2nc(Nc3ccnc(C(F)(F)F)c3)nc(-c3cccc(C(F)(F)F)n3)n2)C1 (stereo not shown)	transport activity, inhibitor	membrane vesicles	concentration not given	–	inhibition	no inhibition
CCCC(=O)OC1O[C@@H]2O[C@@]3(C)CC[C@H]4[C@H](C)CCC([C@H]1C)[C@@]24OO3 (stereo partly shown)	calcein-AM efflux, inhibitor, flow cytometry	CEM/ADR5000	30 min, added: calcein-AM 1 µM	relative to: untreated	maximal effect	1390 ± 394%
